Earlier results as cited in several papers.
± gives the spread as reported. Converted amounts (≈) assume the structure as drawn.
TRPM channel TRPM_PZQ: TRPM channel TRPM_PZQ (Schistosoma mansoni, UniProt A0A5K4F0X5)
UniProt Q9UK32, sequence (whole entry, looked up): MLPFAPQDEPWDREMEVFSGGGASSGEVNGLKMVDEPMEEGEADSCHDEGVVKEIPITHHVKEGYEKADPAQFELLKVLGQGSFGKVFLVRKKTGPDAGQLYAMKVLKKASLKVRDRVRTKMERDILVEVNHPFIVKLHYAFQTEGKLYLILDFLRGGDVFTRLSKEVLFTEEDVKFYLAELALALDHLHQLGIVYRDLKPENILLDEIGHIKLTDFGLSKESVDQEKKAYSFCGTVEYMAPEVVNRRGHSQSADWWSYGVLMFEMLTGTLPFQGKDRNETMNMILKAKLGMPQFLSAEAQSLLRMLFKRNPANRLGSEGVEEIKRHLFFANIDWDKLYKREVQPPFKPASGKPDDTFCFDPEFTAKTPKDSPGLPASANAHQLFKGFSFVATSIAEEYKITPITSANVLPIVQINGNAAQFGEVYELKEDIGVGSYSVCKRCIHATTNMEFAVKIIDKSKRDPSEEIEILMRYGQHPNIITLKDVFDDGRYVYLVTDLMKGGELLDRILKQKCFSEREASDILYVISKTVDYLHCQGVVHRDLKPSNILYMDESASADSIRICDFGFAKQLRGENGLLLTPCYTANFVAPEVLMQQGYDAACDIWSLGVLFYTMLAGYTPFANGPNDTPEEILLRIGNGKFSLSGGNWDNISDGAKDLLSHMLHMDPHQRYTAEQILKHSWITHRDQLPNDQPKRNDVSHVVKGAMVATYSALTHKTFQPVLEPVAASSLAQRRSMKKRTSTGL
UniProt P08913, sequence (whole entry, looked up): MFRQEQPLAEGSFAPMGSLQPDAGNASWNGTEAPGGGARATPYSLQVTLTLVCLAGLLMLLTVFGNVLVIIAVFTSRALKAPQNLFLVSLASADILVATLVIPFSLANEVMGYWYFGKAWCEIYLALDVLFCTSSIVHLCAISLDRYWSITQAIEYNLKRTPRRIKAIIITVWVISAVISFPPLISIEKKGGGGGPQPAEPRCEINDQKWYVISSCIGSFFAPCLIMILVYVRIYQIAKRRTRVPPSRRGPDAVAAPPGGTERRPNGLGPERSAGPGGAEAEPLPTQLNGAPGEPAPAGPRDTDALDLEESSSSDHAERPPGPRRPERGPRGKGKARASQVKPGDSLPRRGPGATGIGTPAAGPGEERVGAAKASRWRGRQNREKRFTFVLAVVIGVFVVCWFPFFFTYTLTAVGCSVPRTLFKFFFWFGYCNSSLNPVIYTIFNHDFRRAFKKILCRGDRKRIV
UniProt O60603, sequence (whole entry, looked up): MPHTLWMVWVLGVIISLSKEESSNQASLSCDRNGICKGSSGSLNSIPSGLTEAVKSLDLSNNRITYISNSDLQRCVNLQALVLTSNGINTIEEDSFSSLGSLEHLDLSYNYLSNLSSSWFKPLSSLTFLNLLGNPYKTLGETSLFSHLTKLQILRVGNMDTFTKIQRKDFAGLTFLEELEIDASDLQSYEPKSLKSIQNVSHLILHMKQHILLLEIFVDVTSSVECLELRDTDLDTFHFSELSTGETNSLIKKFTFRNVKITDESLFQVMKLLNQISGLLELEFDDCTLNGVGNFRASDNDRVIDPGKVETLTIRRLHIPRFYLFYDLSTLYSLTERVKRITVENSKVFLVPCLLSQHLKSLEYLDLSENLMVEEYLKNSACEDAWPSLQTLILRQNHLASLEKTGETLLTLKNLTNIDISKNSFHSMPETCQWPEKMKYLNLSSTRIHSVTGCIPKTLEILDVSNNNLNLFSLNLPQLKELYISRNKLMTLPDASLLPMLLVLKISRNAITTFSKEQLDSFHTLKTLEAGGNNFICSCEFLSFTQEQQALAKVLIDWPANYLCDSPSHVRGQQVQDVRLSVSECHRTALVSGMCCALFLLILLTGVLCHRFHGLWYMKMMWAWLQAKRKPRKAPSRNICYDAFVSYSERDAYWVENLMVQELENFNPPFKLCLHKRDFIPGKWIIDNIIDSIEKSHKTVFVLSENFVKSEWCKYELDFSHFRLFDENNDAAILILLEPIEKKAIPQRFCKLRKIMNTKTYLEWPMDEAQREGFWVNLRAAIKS
UniProt O15244, sequence (whole entry, looked up): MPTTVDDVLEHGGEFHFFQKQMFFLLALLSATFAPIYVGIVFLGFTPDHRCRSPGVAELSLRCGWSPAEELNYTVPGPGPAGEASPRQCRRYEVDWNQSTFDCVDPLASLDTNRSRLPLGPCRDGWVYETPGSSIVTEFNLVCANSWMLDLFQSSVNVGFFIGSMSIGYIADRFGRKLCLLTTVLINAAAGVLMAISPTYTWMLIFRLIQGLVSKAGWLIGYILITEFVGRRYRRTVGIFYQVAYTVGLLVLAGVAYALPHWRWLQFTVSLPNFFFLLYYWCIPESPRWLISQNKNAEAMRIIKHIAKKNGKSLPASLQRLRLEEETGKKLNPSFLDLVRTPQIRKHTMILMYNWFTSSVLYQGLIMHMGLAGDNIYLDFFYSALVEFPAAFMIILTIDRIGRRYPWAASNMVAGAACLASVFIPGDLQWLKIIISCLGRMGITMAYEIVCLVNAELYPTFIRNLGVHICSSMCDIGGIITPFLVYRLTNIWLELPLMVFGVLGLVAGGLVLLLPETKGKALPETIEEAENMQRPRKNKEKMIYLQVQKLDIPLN
UniProt P04818, sequence (whole entry, looked up): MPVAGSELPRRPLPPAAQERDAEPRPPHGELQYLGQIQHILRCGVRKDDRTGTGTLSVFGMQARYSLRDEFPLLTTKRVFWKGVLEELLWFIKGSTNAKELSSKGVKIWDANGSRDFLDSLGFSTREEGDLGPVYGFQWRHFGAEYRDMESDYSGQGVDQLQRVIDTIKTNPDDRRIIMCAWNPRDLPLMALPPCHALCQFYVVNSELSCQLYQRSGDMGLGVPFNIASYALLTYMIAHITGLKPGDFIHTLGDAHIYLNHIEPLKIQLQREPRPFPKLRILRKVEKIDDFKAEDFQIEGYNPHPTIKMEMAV
UniProt Q9Y2C9, sequence (whole entry, looked up): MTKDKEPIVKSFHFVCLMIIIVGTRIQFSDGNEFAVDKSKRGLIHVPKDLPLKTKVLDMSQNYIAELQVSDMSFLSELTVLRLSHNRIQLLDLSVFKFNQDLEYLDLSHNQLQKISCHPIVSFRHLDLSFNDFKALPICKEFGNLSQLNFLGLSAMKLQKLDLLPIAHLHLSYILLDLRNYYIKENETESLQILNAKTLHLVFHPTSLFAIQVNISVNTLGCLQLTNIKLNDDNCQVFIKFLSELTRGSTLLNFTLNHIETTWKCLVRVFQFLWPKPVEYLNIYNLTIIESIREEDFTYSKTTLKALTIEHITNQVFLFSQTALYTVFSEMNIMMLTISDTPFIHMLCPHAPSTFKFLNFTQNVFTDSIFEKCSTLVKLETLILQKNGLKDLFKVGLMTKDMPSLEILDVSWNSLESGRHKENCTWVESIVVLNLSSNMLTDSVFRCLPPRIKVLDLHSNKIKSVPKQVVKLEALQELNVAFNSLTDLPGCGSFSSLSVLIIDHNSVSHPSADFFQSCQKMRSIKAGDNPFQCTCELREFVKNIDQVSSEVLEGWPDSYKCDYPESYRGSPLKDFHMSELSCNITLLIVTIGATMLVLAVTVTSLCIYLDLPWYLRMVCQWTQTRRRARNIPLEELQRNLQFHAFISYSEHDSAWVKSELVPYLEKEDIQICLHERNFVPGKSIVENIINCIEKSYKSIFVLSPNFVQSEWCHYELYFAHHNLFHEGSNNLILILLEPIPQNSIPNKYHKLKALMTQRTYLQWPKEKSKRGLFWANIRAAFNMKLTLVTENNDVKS

CNC(=O)[C@@]12C[C@@H]1[C@@H](n1cnc3c(NCc4cccc(Cl)c4)nc(C#Cc4ccc(F)c(F)c4)nc31)[C@H](O)[C@@H]2O
Ki (ADRA2A (Homo sapiens, UniProt P08913); radioligand binding (PDSP)): 1000 to 10000 nM

COc1ccc(-c2cc(=O)c3c(O)cc(O)cc3o2)cc1
IC50 (tyrosinase; inhibitor): 779000 nM

C[C@H]1COCCN1c1nc(-c2cnc(N)cc2C(F)F)nc(N2CCOCC2)n1
GI50 (OVCAR-3): 118 nM

CN/C(=N/CCSCc1nc[nH]c1C)NC#N
Ki (SLC22A2 (Homo sapiens, UniProt O15244); inhibitor): 124000 nM

Cc1c(C#N)cccc1[C@@H](C)Nc1nnc(C)c2cnc(N3CCOCC3)cc12
IC50 (NCI-H1666; ERK phosphorylation, In-Cell Western, measured: phospho-ERK): 24.7 ± 12 nM

O=C(O)CC(=O)C(=O)O
Kd (Thermoplasma acidophilum citrate synthase; fluorescence titration; 20 °C, unliganded enzyme): 1300 nM

CC1(C)S[C@@H]2[C@H](NC(=O)[C@H](N)c3ccccc3)C(=O)N2[C@H]1C(=O)O
MIC (Klebsiella pneumoniae; clinical isolate RKI-No_268/15): > 16 µg/mL

Nc1nc2[nH]cc(CCc3ccc(C(=O)N[C@@H](CCC(=O)O)C(=O)O)cc3)c2c(=O)[nH]1
Kd (TYMS (Homo sapiens, UniProt P04818)): 340 nM

CCCCCCCCCCCCCCCC(=O)OCC(CSC[C@H](N)C(=O)N[C@@H](CO)C(=O)OC)OC(=O)CCCCCCCCCCCCCCC (some centres unmarked)
EC50 (TLR2/TLR6 (Homo sapiens, UniProt O60603+Q9Y2C9); agonist; literature value): 0.4 nM

O=C(C1CCC(F)(F)CC1)N1CC(=O)N2CCc3ccccc3[C@@H]2C1
EC50 (TRPM channel TRPM_PZQ): 2500 ± 700 nM

CNC(C)C1CCC(N)C(OC2C(N)CC(N)C(OC3OCC(C)(O)C(NC)C3O)C2O)O1 (centres unmarked)
MIC (Klebsiella pneumoniae; clinical isolate RKI-No_268/15): 1 µg/mL (≈ 2.09 µM)

CC(=O)N[C@@H](CC(N)=O)C(=O)N[C@@H](CC(C)C)C(=O)N[C@]1(C)CCCCCCC=CCCC[C@@](C)(C(=O)N[C@@H](CCC(=O)O)C(=O)N[C@@H](CC(C)C)C(=O)N[C@@H](CC(N)=O)C(N)=O)NC(=O)[C@H](CC(C)C)NC(=O)[C@H](CC(C)C)NC(=O)[C@H](CCCNC(=N)N)NC(=O)[C@H](CC(=O)O)NC(=O)[C@H](CC(C)C)NC(=O)[C@H](CCC(=O)O)NC1=O
Ki (FAK-paxillin interaction; protein-protein interaction disruption, inhibitor): 5800 nM

O=C(C1CCSCC1)N1CC(=O)N2CCc3ccccc3[C@@H]2C1
EC50 (TRPM channel TRPM_PZQ): 300 ± 10 nM

O=C(O)CCCOc1ccc(F)cc1-c1cc(-c2ccccc2C(F)(F)F)n(-c2ccccc2)n1
Kd (FABP3; binding): 24 nM

CN(C)Cc1ccccc1Sc1ccc(I)cc1CO
Ki (serotonin transporter): 0.09 nM

Cc1oncc1C(=O)Nc1ccc(C(F)(F)F)cc1
AC50 (CAR (constitutive androstane receptor); receptor activation, agonist, Tox21 HTS): 770 nM

Nc1cc(C(F)(F)F)c(-c2nc(N3CCOCC3)nc(N3CCOCC3)n2)cn1
remaining activity (Ribosomal protein S6 kinase alpha-6, N-terminal kinase domain (RPS6KA6, Homo sapiens, UniProt Q9UK32); enzyme activity; 10 µM; baseline: untreated): 100%

Repeated from above:
O=C(C1CCC(F)(F)CC1)N1CC(=O)N2CCc3ccccc3[C@@H]2C1
EC50 (TRPM channel TRPM_PZQ): 2500 ± 700 nM

CNC(C)C1CCC(N)C(OC2C(N)CC(N)C(OC3OCC(C)(O)C(NC)C3O)C2O)O1 (centres unmarked)
MIC (Klebsiella pneumoniae; clinical isolate RKI-No_268/15): 1 µg/mL (≈ 2.09 µM)
